Experimental data pooled from the literature.
Every numbered part comes from another study and shows a few of its results, in no order.
Chain of UniProt P48730 (whole entry, looked up): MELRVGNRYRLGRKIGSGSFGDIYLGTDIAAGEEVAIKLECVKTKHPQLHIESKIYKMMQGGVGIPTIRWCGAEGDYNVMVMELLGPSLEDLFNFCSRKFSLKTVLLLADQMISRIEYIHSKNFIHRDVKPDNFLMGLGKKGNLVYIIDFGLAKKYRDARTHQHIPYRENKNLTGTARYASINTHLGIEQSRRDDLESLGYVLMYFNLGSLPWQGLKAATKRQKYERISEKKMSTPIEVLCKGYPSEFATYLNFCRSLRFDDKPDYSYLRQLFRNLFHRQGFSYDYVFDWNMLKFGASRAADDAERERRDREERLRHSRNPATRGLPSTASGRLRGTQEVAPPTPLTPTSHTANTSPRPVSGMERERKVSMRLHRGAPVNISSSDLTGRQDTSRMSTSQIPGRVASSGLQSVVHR

Sample 1
Target: Interferon regulatory factor 5, full length, phosphomimetic (IRF5, Homo sapiens, UniProt Q13568-2, residues 1-514, S451D/S453D/S456D/S462D)
Technique: protein-binding microarray
Molecule type: double-stranded DNA, one strand shown
Sample: in vitro
Concentration: 940 nM top
Setting: 60-bp whole probe
Added: salmon DNA 0.4 mg/ml
Relative to: random background probes
Direction: higher = stronger binding
Constant ends, left off below: GCCTAGCAC … GTCTTGATTCGCTTGACGCTGCTG
| Strand | fitted relative affinity |
| --- | --- |
| CTAATTTTGAGACTCATGGGGTGCTAG | -0.109 z-score |
| TTAGGTATCGACTATCGGTGAGTGCTA | 5.94 z-score |
| TTAGAACTAAGTTTCGATTAGTGCTAG | 6.98 z-score |
| TTAGATTTCAGTATCCATTAGTGCTAG | 1.11 z-score |
| TTAGGTTTCCCTTTCCTTTAGTGCTAG | 2.98 z-score |
| TCATCTTTCACTGCTCCCACTGTGCTA | 2.12 z-score |
| GGGCGGGTGCCAACTCTTAGGTGCTAG | -0.785 z-score |
| TTAGGTCTCCTTCTCCGTTAGTGCTAG | 0.749 z-score |

Sample 2
Target: Centromere-binding protein 1, full length, His-tagged (CBF1, Saccharomyces cerevisiae, UniProt P17106, residues 1-351)
Chain of UniProt P17106 (whole entry, looked up): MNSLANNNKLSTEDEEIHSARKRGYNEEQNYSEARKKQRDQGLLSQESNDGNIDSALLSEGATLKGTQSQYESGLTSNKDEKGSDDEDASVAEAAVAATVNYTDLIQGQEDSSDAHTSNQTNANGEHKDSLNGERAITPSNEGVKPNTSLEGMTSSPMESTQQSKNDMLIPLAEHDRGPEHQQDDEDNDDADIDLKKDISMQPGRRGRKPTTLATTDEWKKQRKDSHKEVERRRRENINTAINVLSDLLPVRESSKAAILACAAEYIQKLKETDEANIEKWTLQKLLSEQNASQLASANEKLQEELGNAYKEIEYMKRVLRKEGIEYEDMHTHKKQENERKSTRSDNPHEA
Technique: competition protein-binding microarray
Molecule type: double-stranded DNA, one strand shown
Sample: in vitro
Concentration: 2 µM
Setting: whole 60-bp probe, lowest competitor level
Added: Pho4 competitor, 0.05 µM
Direction: higher = stronger binding
Constant ends, left off below: … GTCTTGATTCGCTTGACGCTGCTG
| Strand | fluorescence intensity |
| --- | --- |
| AGATCCTGGACATGGAACGTGAACCTAGGCTTGATG | 66.4 a.u. |
| AAGATTGCTGAAGACCACATGGAGATACTACGCTCC | 72.7 a.u. |
| AGGTAGATCTCTACACGTGTGCAAGCGCATAACAAT | 759 a.u. |
| ACTACGAGGGCCCTGTTCGTGGGACAGATTTCCATC | 48.7 a.u. |
| GTCTTGTCTCATTGTCACGTCACTTTCCCCACTTCA | 176 a.u. |
| TTGGACTTTAATGGGGGCGTGGGTATGTTTGGAGAC | 89.5 a.u. |
| CTTTCCCGATCTTGCTCGGTGGGTGTAGCACATTTG | 61.7 a.u. |
| CTTTCCCGATCTTTTCACGTGAATTTAGCACATTTG | 932 a.u. |

Sample 3
Target: TAR DNA-binding protein 43, full length, His tag (TARDBP, Homo sapiens, UniProt Q13148, residues 1-414)
Technique: RNA Bind-n-Seq
Molecule type: RNA
Sample: in vitro
Concentration: 20 nM
Setting: 6-mer, flanks averaged, single round
Added: 150 mM KCl
Relative to: input library
Direction: higher = stronger binding
| Strand | 6-mer enrichment (R) |
| --- | --- |
| ACAAAG | 0.771 |
| CACGCC | 0.685 |
| GGAACG | 2.07 |
| UUUUUA | 0.779 |
| CUGCGG | 1.6 |
| AUGGAG | 1.62 |
| UGGGGA | 3.82 |
| ACACCG | 0.747 |

Further values, each from its own experiment
| SMILES | target | assay | setting | how to read | quantity | result |
| --- | --- | --- | --- | --- | --- | --- |
| O=c1c2ccccc2[nH]c(=S)n1CCN1CCC(=C(c2ccc(F)cc2)c2ccc(F)cc2)CC1 | Casein kinase I isoform delta (CSNK1D, Homo sapiens, UniProt P48730) | enzyme activity, inhibitor | 0.5 µM | relative to: control | remaining activity | 100% |
